Measurements of several laboratories.
Cell line: IGROV-1

SMILES	assay	conditions	how to read	quantity	value
C#C[C@@]1(O)[C@@H](CO)O[C@@H](n2ccc3c(N)ncnc32)[C@@H]1O	SRB	NCI-60 screen		TGI	5.85 µM
Cc1n[nH]c2nc(-c3ccc(Cl)cc3)c3c(NC(=O)c4ccccc4)nnc-3n12	SRB	10 µM, NCI60 single-dose screen	reference: untreated	cell growth	109%
Cc1cc(=O)[nH]c(=O)n1Cc1cn(-c2c3ccccc3nc3ccccc23)nn1	NCI60 single dose	10 µM		growth	33%
S=C([S][Au-][P+](CCCCCC[P+]([Au-][S]C(=S)n1cccn1)(c1ccccc1)c1ccccc1)(c1ccccc1)c1ccccc1)n1cccn1	cell growth, NCI-60 screen	ovarian cancer		log10 TGI	-4.77
CCOC(=O)CSc1nc(-c2ccc(Cl)cc2)c2c(NC(=O)c3ccccc3)nnc-2[nH]1	SRB	10 µM, NCI60 single-dose screen	reference: untreated	cell growth	92.5%
C#C[C@@]1(O)[C@@H](CO)O[C@@H](n2cc(Cl)c3c(N)ncnc32)[C@@H]1O	SRB	NCI-60 screen		TGI	0.475 µM
CCOc1ccc(-c2nc3cc(-c4nc5cc(N6CCN(C)CC6)ccc5[nH]4)ccc3[nH]2)cc1OCC	SRB	10 µM, 48 h		growth percent	50.5%
Cn1cncc1C1=CN(c2ncnc3[nH]cnc23)CCS1		ovarian cancer		TGI	195 µM
Cc1cc(=O)[nH]c(=O)n1Cc1cn(-c2cc3ccccc3oc2=O)nn1	NCI60 single dose	10 µM		growth	97.4%
CCCCN1CCN(c2ccc3[nH]c(-c4ccc5[nH]c(-c6ccc(C(F)(F)F)cc6)nc5c4)nc3c2)CC1	SRB	10 µM, 48 h		growth percent	-82.3%
Cc1cc(C)n(-c2nc(-c3ccc(Cl)cc3)c3c(NC(=O)c4ccccc4)nnc-3[nH]2)n1	SRB	10 µM, NCI60 single-dose screen	reference: untreated	cell growth	115%
CCCCN1CCN(c2ccc3[nH]c(-c4ccc5[nH]c(-c6ccc(OCC)c(OCC)c6)nc5c4)nc3c2)CC1	SRB	10 µM, 48 h		growth percent	15.1%
CCCC(CCC)C(=O)OCc1cn(-c2c3ccccc3nc3ccccc23)nn1	NCI60 single dose	10 µM		growth	95.8%
COC(=O)/C=C1\C(=O)C=C2C3CC4CC(CCC4(C)N21)C3(C)NC(C)=O (stereo not shown)	cell growth	NCI screen		IC50	20 µM
CN1CCN(c2ccc3[nH]c(-c4ccc5[nH]c(-c6ccc(C(F)(F)F)cc6)nc5c4)nc3c2)CC1	SRB	10 µM, 48 h		growth percent	71.2%
O=c1ccn(Cc2cn(-c3cc4ccccc4oc3=O)nn2)c(=O)[nH]1	NCI60 single dose	10 µM		growth	91.5%
NNc1nc(-c2ccc(Cl)cc2)c2c(NC(=O)c3ccccc3)nnc-2[nH]1	SRB	10 µM, NCI60 single-dose screen	reference: untreated	cell growth	100%
CCCCN1CCN(c2ccc3[nH]c(-c4ccc5[nH]c(-c6cc(OC)c(OC)c(OC)c6)nc5c4)nc3c2)CC1	SRB	10 µM, 48 h		growth percent	94.2%
CSc1nc(-c2ccc(Cl)cc2)c2c(NC(=O)c3ccccc3)nnc-2[nH]1	SRB	10 µM, NCI60 single-dose screen	reference: untreated	cell growth	104%
COc1ccc(OC)c(-c2nc3ccc(-c4nc5ccc(N6CCN(C)CC6)cc5[nH]4)cc3[nH]2)c1	SRB	10 µM, 48 h		growth percent	94.7%
O=C(Nc1nnc2n3c(nc(-c4ccc(Cl)cc4)c1-2)SCC3=O)c1ccccc1	SRB	10 µM, NCI60 single-dose screen	reference: untreated	cell growth	94.6%
O=C1NCCc2[nH]c(-c3ccncc3)cc21	MTS	NCI60 panel		IC50	> 10 µM

For quick reference, copied from above:
SMILES	assay	conditions	how to read	quantity	value
Cc1cc(=O)[nH]c(=O)n1Cc1cn(-c2cc3ccccc3oc2=O)nn1	NCI60 single dose	10 µM		growth	97.4%
CCCCN1CCN(c2ccc3[nH]c(-c4ccc5[nH]c(-c6cc(OC)c(OC)c(OC)c6)nc5c4)nc3c2)CC1	SRB	10 µM, 48 h		growth percent	94.2%
